Published values collected from several papers.
Lines come from different studies, so protocols differ. Several values in a cell are separate wells, animals, samples, runs or records. ± marks the error that the study gave.

C=CC1=C(C)c2cc3[n-]c(cc4nc(cc5[n-]c(cc1n2)c(C)c5C=C)C(C)=C4CCC(=O)O)c(CCC(=O)O)c3C.[Zn+2]  fold change (SH-SY5Y; RNA-seq, measured: DKK2 mRNA; 5 µM, 5 h; baseline: untreated cells): 2.33
C/C=C1\[C@H]2C=C(C)C[C@]1(N)c1ccc(=O)[nH]c1C2  activity score (human iPSC-derived cardiomyocytes; MyBP-C/MYH ratio, plate-normalised SD score; concentration not given, primary screen; direction not given): 3.7
Cn1cc(-c2ccc(-c3cncc(Cl)c3N3CCC4(CCNC4=O)CC3)cc2)cn1  log2 fold change (COLO 205; gene expression, microarray, measured: DDIT4 mRNA; concentration not given, 6 h; baseline: untreated cells): 1.65
O=C(/C=C/C=C/C=C/C1CCCCC1)NC1=C[C@@](O)(/C=C/C=C/C=C/C(=O)NC2=C(O)CCC2=O)[C@@H]2O[C@@H]2C1=O  GI50 (PaTu 8902; cell growth, CellTiter-Glo; 78 h): > 30 µM
CCCCN1C[C@H](O)[C@@H](O)[C@@H](O)[C@H]1CO  IC50 (sample B patient fibroblasts; Gb3 level lowering, LC-MS/MS, measured: Gb3 d18:1/24:0; 216 h): 13.5 µM
CCC(=O)OCC(=O)[C@@]1(OC(=O)CC)[C@@H](C)C[C@H]2[C@@H]3CCC4=CC(=O)C=C[C@]4(C)[C@@]3(Cl)[C@@H](O)C[C@@]21C  activity score (human iPSC-derived cardiomyocytes; MyBP-C/MYH ratio, plate-normalised SD score; concentration not given, primary screen; direction not given): -3.1
CCn1cc(-c2cc(Cn3ccnc3)cc3c2CCN([C@H](c2cc(OC)ccn2)C2CC2)C3=O)c(C(F)(F)F)n1  EC50 (REH; cell growth, inhibitor; 120 h): > 30 µM
C#C[C@@]1(O)[C@@H](CO)O[C@@H](n2cc(Br)c3c(N)ncnc32)[C@@H]1O  TGI (M14; SRB; NCI-60 screen): 12.9 µM and 14.2 µM
COc1cccc(OC)c1-c1cc(C(=O)NC2(C(=O)O)C3CC4CC(C3)CC2C4)nn1-c1ccc(C(=O)N(C)CCCN(C)CCCN(C)C(=O)CN2CCN(CC(=O)[O-])CCN(CC(=O)[O-])CCN(CC(=O)[O-])CC2)cc1C(C)C.[177Lu+3] (stereo not shown)  macromolecule-bound activity (HT-29; centrifugal filtration 10 kDa; concentration not given, 24 h; baseline: internalized): 15 ± 5%
CN(C)CCOC(c1ccc(Cl)cc1)c1ccccn1 (stereo not shown)  activity score (human iPSC-derived cardiomyocytes; MyBP-C/MYH ratio, plate-normalised SD score; concentration not given, primary screen; direction not given): -5.4
COc1cnc2cccc(N3CCc4c(cc(Cn5ccnc5C)cc4-c4cn(C)nc4C(F)(F)F)C3=O)c2c1  EC50 (NCI-H929; cell growth, inhibitor; 120 h): > 30 µM
S=C(Nc1ccccc1)c1ccccn1  efficacy (C127 LDR GFP reporter cells; silenced GFP reporter induction, activator, high-content imaging; retest, two-run mean): 113%
COc1cc(NC(C)CCCN)c2ncccc2c1 (stereo not shown)  MyBP-C level (MYBPC3 iPSC cardiomyocytes; plate-normalised; concentration not given, 24 h, hit retest): 1.7%
CCOC(=O)N1CCC(CN(Cc2ccc(Cl)cc2)Cc2ccc([N+](=O)[O-])s2)C1 (stereo not shown)  inhibition (knock-down, REV-ERBα/β, HepG2; transcription, qPCR, measured: BMAL1 mRNA; concentration not given): 16%
Cn1cc(Nc2nccc(-c3ccc4c(c3)CN(C3COC3)CC[C@H]4NC(=O)c3cn(C(C)(C)C)nn3)n2)cn1  pathway activation z-score (mouse splenic B cells; measured: apelin Endothelial signalling pathway; 30 mg/kg, IgD-activated in vivo; baseline: vehicle, direction not given): 2.14
COc1ccc(C[C@H](N)C(=O)N[C@H]2[C@@H](O)[C@H](n3cnc4c(N(C)C)ncnc43)O[C@@H]2CO)cc1  activity score (human iPSC-derived cardiomyocytes; MyBP-C/MYH ratio, plate-normalised SD score; concentration not given, primary screen; direction not given): 4.2
CCn1cc(-c2cc(Cn3ccoc3=N)cc3c2CCN([C@@H](C)c2cc(OC)ccn2)C3=O)c(C(F)(F)F)n1  EC50 (MDA-MB-436; cell growth, inhibitor; 120 h): 0.117 µM
CCC(=O)O[C@]1(C(=O)SCF)[C@H](C)C[C@H]2[C@@H]3C[C@H](F)C4=CC(=O)C=C[C@]4(C)[C@@]3(F)[C@@H](O)C[C@@]21C  activity score (human iPSC-derived cardiomyocytes; MyBP-C/MYH ratio, plate-normalised SD score; concentration not given, primary screen; direction not given): 3.4
Cc1c(C(=O)O)ccc2c3n(nc12)[C@@H]1[C@H](C3)N(CC2CC2)[C@@]2(C(=O)Nc3cc(Cl)ccc32)[C@H]1c1cccc(Cl)c1F  GI50 (RKO (MDM2 non-amplified); cell growth, alamarBlue; 120 h): 0.043 µM

Some of these lines once more:
O=C(/C=C/C=C/C=C/C1CCCCC1)NC1=C[C@@](O)(/C=C/C=C/C=C/C(=O)NC2=C(O)CCC2=O)[C@@H]2O[C@@H]2C1=O  GI50 (PaTu 8902; cell growth, CellTiter-Glo; 78 h): > 30 µM
